# Measured values from different studies.
# Compare with care: the assays were run in different laboratories. Numbers after ± are the reported error.
SMILES,test,test system,setting,tissue uptake
N=C(N)NCc1ccc(C(=O)NCCCC[C@H](NC(=O)N[C@@H](CCC(=O)O)C(=O)O)C(=O)O)cc1[131I],,"SCID mouse, PC-3 xenografts, brain",4 h,0.04 ± 0.01 %ID/g
COc1cc2ncnc(Oc3cccc(N[11C](=O)Nc4cc(C(C)(C)C(F)(F)F)on4)c3)c2cc1OC,,"Balb/c nude mouse, female, A375 melanoma xenograft, small intestine","6.6 MBq, 60 min",22.3 ± 3.18 %ID/g
C=Cc1cc(O)cc2nc(-c3ccc(O)c([76Br])c3)oc12,,"female C57BL/6 mouse, kidney","3 h, high dose, added: estradiol 20 µg blocking",0.64 ± 0.25 %ID/g
C[S]1CC[S]2CC[P](CO)(CO)[99Tc+]12.[C-]#[O+].[C-]#[O+].[C-]#[O+],,"female CF-1 mouse, large intestine","intravenous, 24 h",2.7 %ID/g
CCCC[C@H](NC(=O)CCOCCOCCNC(=O)CN1CCN(CC(=O)O)CCN(CC(=O)O)CCN(CC(=O)O)CC1)C(=O)N[C@H]1CC(=O)NCCCC[C@@H](C(N)=O)NC(=O)[C@H](Cc2c[nH]c3ccccc23)NC(=O)[C@H](CCCNC(=N)N)NC(=O)[C@@H](Cc2ccccc2)NC(=O)[C@H](Cc2c[nH]cn2)NC1=O [gallium-68 labelled],biodistribution,"C57BL/6J mouse male tumour-bearing, adrenal glands","1 h post injection, unblocked",0.3 ± 0.2 %ID/g
CC[C@H](C)[C@@H]1NC(=O)[C@@H](NC(=O)CNC(=O)c2ccc(F)cc2)CSSC[C@@H]2NC(=O)[C@H](C)NC(=O)CNC(=O)[C@@H]3CCCN3C(=O)[C@@H]3CSSC[C@@H](C(=O)NCC(=O)O)NC(=O)[C@H](Cc4ccc(O)cc4)NC(=O)CNC(=O)[C@H](CC(N)=O)NC(=O)CNC(=O)[C@H](CCCNC(=N)N)NC(=O)[C@H](CSSC[C@H](NC(=O)[C@H](CCCNC(=N)N)NC(=O)[C@H](Cc4ccccc4)NC(=O)[C@H](CC(C)C)NC(=O)[C@H](CC(C)C)NC(=O)[C@H]([C@@H](C)O)NC(=O)CNC(=O)[C@H](CC(C)C)NC(=O)[C@H](CC(=O)O)NC(=O)[C@H]([C@@H](C)O)NC(=O)[C@H](CCCNC(=N)N)NC(=O)[C@H](CCSC)NC(=O)[C@H](CC(N)=O)NC(=O)[C@H](CC(C)C)NC1=O)C(=O)N[C@@H](CCCNC(=N)N)C(=O)N[C@@H](CCCNC(=N)N)C(=O)N[C@@H](CC(=O)O)C(=O)N[C@@H](CO)C(=O)N[C@@H](CC(=O)O)C(=O)N3)NC(=O)[C@H]([C@@H](C)CC)NC2=O [fluorine-18 labelled],γ-counting,"mouse, stomach",,1.6 ± 0.4 %ID/g
N=C(N)NCc1ccc(C(=O)NCCCC[C@H](NC(=O)N[C@@H](CCC(=O)O)C(=O)O)C(=O)O)cc1[211At],,"SCID mouse, PC-3 xenografts, liver",1 h,8.25 ± 2.47 %ID/g
O=C(O)CC[C@H](NC(=O)O[C@@H](CCCCNC(=O)c1ccc([18F])cc1)C(=O)O)C(=O)O,,"mouse, PC-3 PIP/flu xenografts, small intestine",90 min,0.27 ± 0.11 %ID/g
N=C(N)NCc1ccc(C(=O)NCCCC[C@H](NC(=O)CCCCCCC(=O)NCCCC[C@H](NC(=O)N[C@@H](CCC(=O)O)C(=O)O)C(=O)O)C(=O)O)cc1[211At],,"SCID mouse, PC-3 xenografts, muscle",1 h,0.38 ± 0.16 %ID/g
CN[C@](C)(C[18F])C(=O)O,,"SCID mouse U87 xenograft, kidney","120 min, post injection",2.8 ± 1 %ID/g
CCCC[C@H](NC(=O)CN1CCC(NC(=O)CN2CCC(NC(=O)CN3CCN(CC(=O)O)CCN(CC(=O)O)CCN(CC(=O)O)CC3)CC2)CC1)C(=O)N[C@H]1CC(=O)NCCCC[C@@H](C(N)=O)NC(=O)[C@H](Cc2c[nH]c3ccccc23)NC(=O)[C@H](CCCNC(=N)N)NC(=O)[C@@H](Cc2ccccc2)NC(=O)[C@H](Cc2c[nH]cn2)NC1=O [gallium-68 labelled],biodistribution,"C57BL/6J mouse male tumour-bearing, seminal vesicle","1 h post injection, unblocked",0.1 ± 0.1 %ID/g
N=C(N)NCc1ccc(C(=O)NCCCC[C@H](NC(=O)CCCCCCC(=O)NCCCC[C@H](NC(=O)N[C@@H](CCC(=O)O)C(=O)O)C(=O)O)C(=O)O)cc1[131I],,"SCID mouse, PC-3 xenografts, brain",21 h,0.01 ± 0.01 %ID/g
